Published values pooled from the literature.
Each numbered part is a random draw from the data of one study; scales do not carry over between parts.

Sample 1
Target: Ras GTPase-activating protein-binding protein 1, C-terminal RGG region (G3BP1, Homo sapiens, UniProt Q13283)
UniProt Q13283, sequence (whole entry, looked up): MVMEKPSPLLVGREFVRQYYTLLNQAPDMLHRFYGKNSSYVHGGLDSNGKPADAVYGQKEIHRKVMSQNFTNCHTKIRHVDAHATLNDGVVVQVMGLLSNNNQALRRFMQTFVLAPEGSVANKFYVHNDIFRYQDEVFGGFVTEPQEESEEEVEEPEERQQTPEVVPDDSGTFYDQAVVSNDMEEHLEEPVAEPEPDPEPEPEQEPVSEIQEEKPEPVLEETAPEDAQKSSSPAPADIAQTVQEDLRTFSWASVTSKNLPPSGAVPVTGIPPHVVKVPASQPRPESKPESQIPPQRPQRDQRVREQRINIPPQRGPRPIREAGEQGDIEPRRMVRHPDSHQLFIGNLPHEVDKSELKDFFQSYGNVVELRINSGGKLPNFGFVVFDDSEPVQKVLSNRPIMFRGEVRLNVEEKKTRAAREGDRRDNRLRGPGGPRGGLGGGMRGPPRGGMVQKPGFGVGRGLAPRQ
Technique: RNA Bind-n-Seq
Form: RNA
Medium: in vitro
Tested at: 1 µM
Setting: whole 134-nt RNA, ends assumed
With: 150 mM KCl
Baseline: input library
Direction: higher = stronger binding
Endpoint: log2 enrichment
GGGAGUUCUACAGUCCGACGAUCUGGCCCUGGUGGCAUGCGGGGAGGAAGAGGUGGCCACAUGGAUCGUGGUGGUCCCGGUGGAAUGUUCAGAGGUGGCCGUGGUGGAGACAGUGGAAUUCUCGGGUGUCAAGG: 2.44
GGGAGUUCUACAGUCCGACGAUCUCAAGUCCUGUGCUACACAUCGUAUGUACCGAAUCGGAAAGGUUUUUGGAAAGGAAAGUAUUAUGUUACGCCGUUCGGAUCUGCACUUCCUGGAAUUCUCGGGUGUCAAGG: -1.54
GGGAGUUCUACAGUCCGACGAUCACGCUCCAUGAAAGCUAGGAGGGAGUGAAAUAUCAGUGAUCAUCGCAAGGAAGGAGGCAGACAAGAGUAAGGCACACCUGACUCUUAGGAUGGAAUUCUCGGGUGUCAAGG: -1.65
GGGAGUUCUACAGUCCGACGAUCUCAAGUCCUGUGCUACACAUCGUAUGUACCGAAUCGGAAAGGAAAGGGGAAAGGGAAAGUAUUAUGUUACGCCGUUCGGAUCUGCACUUCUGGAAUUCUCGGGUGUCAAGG: -1.59
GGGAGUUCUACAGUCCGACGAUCACCAUGCAGGUGGGCAUCUUUGGGAAGUGGGGCAAGGGGGGGAAAAGGAGGGGGGUAACACUUUGGGAACAGGUGGUCCCAGGUCGUUUCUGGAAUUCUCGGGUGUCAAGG: -0.361
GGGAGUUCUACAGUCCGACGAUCUCCUGUGCUACACAUCGUAUGUACCGAAUCGGGUUUUUGGGUUUUUGGGUUUUUUUGGGAAAGUAUUAUGUUACGCCGUUCGGAUCUGCAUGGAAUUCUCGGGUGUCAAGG: -0.277
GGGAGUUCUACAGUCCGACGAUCUCCUGUGCUACACAUCGUAUGUACCGAAUCGGGGUUUGGGGUUUGGGGUUUUUUUGGGGAAAGUAUUAUGUUACGCCGUUCGGAUCUGCAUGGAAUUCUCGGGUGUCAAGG: 2.99
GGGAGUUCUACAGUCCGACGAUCGUCCUGUGCUACACAUCGUAUGUACCGAAUCGGGCCCCCGGGCCCCCGGGGCCCCCGGGAAAGUAUUAUGUUACGCCGUUCGGAUCUGCAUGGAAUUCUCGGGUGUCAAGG: -2.14
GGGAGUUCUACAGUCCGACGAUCCCUGUGCUACACAUCGUAUGUACCGAAUCGGAAAAAAAGGGAAAAAAAGGAAAAAAAGGGGAAAGUAUUAUGUUACGCCGUUCGGAUCUGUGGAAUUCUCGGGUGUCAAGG: -1.81
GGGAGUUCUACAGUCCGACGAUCCUCAAGUCCUGUGCUACACAUCGUAUGUACCGAAUCGGUGGAAAGGUUUUUGGAAAGUAUUAUGUUACGCCGUUCGGAUCUGCACUUCCAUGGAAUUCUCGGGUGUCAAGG: -1.03

Sample 2
Target: RNA binding protein fox-1 homolog 2, RRM domain, GST-SBP tag (RBFOX2, Homo sapiens, UniProt O43251-10, residues 100-194)
Technique: RNA Bind-n-Seq
Form: RNA
Medium: in vitro
Tested at: 365 nM
Setting: natural RNA segment, single round, ends assumed
Baseline: no-protein control
Direction: higher = stronger binding
Endpoint: RBNS enrichment (R)
Target sequence (chain): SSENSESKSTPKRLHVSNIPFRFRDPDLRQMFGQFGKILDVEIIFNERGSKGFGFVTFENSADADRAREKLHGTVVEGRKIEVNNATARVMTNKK
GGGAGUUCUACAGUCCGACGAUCAAAGAAUAGUGUUUGUCCCUAUGGUAGCCUCAGUCUCUUUAUCACUAACUUGGAUUGAAAUGAGUGAGGCCAACUCACAUUCCCAUCAAACACUCUUCCAAGGAAAAGCAUGGAAUUCUCGGGUGCCAA: 0.743
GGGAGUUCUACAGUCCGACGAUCUCUUGUUCUCACUGCUGAACUGGUGUUUAAAAUUCUUCGCAGGUCAGAAGUUUGGGAACUCAAAAGUGACAUCAGGAAAGUUAGGAAAAAGUCCACUGUCAACAUUAUCAUGGAAUUCUCGGGUGCCAA: 0.697
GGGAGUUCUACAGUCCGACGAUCUCUCUCACCUAAAUAGUUCCACUUUCUGCAUUAGGAGAAAACUGCUCCCCUCCCCAAGUAUUUUAGUCCAAGUUUCCUUUAGUUUGAGAACAUAGAUUGUAUCACCCAUAUGGAAUUCUCGGGUGCCAA: 1.2
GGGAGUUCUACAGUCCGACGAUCAAAGCCAAUUCCAGUGUUGGACGUGACAGGUCUUGUGUUUAGGUCAAGGUGUCUCCUCUCAGUGCAGGGACAUGCCUGCUCUGUGGGGCAGGCGAGGACCCUGAAUCAUUUGGAAUUCUCGGGUGCCAA: 1.15
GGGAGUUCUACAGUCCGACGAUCGCACAAACAGUUGAACUUAGAAGUAGCAGUAUUGGCUUUAUGUAAUAAAGGAAGCAUUUUUGACUUACCUCUCGUGUAAUUUUCAUGUGUGAAUUGGGAAUACAGGAUUUUGGAAUUCUCGGGUGCCAA: 0.713
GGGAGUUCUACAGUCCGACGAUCAAAAAAGGAAAAGGAAAAAGCAUGACAUUGUGUAUCGAUUUUUUGUUGUUGACCAAAAUCACACACAUGGAAACAUGUAAUUCAACAGAGUGGGAAAGCUAGCAGAUUCUUGGAAUUCUCGGGUGCCAA: 4.01
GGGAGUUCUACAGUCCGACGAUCGCCAUAUCUCCUGUGGCACCUAGGCAGCCCAAUCUCAGGGUUAGUUUUUUCCAGGGAAAACAAUGUGCUUCCUCAUGUUCAUGCCAAAUUGCACAAAGUGUAGGUAUUCAUGGAAUUCUCGGGUGCCAA: 0.262
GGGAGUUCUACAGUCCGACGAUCUCGUUCCUGCUUUUUCAUUGUCAUUAAAUUCUGUAGAAACCCAUUGUCAUUAGCUCCAAGUGUAAAUUUGGGUCAAGGAGACAGAAUAAUAAUGGGAAUCUCGGAGUUCGUGGAAUUCUCGGGUGCCAA: 0.417
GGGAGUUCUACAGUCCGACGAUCUGCCCACCCCAGCCUCCCAAAAUGCUGGGAUUACAGGCGUGAGCCACGGCACGCAGCCAGCAAGUUGUUUUUAAAUGUUAAUAUAGAAAACAGUGAAGGAUUAGCUGAAAUGGAAUUCUCGGGUGCCAA: 0.339
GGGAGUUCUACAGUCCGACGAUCUUUUUUUUUGUCUCAUGUCACAGAUGACUGUUUCGCACAAACACAGCAUAGUGGAAGAAAAAAUUUCAGAAGCAAAGUAGCCAAGCACAUGUUAGGAUGGCCACGAAUGCUGGAAUUCUCGGGUGCCAA: 4.88
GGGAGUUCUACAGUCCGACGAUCACCACUCUGGUGGCCACACAGCGCCUCAGAGAGCAUUCUGGGAAGUGCCUGUUUCCGAGGAACCCUGUCUCCAGCUUGUGGCUAUCUUACUGUGUUCUGCCCAGGCACCUUGGAAUUCUCGGGUGCCAA: 0.695
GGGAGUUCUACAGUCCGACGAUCGCGGCGUGCCAAUCUGCGGGUCCCCUGCGGCCCCUGCUGCCGCUGCGCUGUCCCGGCCGCAAGAGCGGGGCCGCCCCGCCGAGGUUUGUAGCAGCCGGGAUGUGACCCUCUGGAAUUCUCGGGUGCCAA: 2.04

Sample 3
Target: Histone acetyltransferase KAT6A, winged helix 1, GST fusion (KAT6A, Homo sapiens, UniProt Q92794, residues 1-85)
Technique: protein binding microarray
Form: double-stranded DNA, one strand shown
Medium: in vitro
Tested at: not given
Setting: 8-mer, flanks averaged, mean of 2 arrays, mostly near background
Baseline: not given
Direction: higher = stronger binding
Endpoint: E-score
Construct (chain): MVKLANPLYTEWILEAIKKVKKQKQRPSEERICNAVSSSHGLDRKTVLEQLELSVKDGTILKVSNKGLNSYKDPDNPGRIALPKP
CTCGGAGA: 0.0629
CGGAATAG: 0.177
AGCCGAAA: -0.124
ACCATGAA: -0.0168
TACGGCCA: 0.227
ATTCATTC: -0.184
GCCGAACA: 0.0889
AGGAAAAA: -0.113
GAAGGACC: 0.0178
ATATCTCA: -0.183
CAGCGGCA: 0.285
GCTTTTGA: 0.0382
GATTGAGA: -0.166
GAAACGTC: -5.5e-05
AGTCGGGG: 0.112
CTGGCGCC: 0.143
TCGAAAGA: -0.199
GCTGTGGA: -0.0607

Sample 4
Target: Hepatocyte nuclear factor 3-alpha (Foxa1, Mus musculus, UniProt P35582, residues 1-468, full length assumed)
Technique: EMSA with sequencing
Form: double-stranded DNA, one strand shown
Medium: in vitro
Tested at: 10 and 20 nM
Setting: whole designed probe, mean of two concentrations, ends assumed
Baseline: negative control set to 0
Direction: higher = stronger binding
Endpoint: normalised bound fraction
Target sequence (chain): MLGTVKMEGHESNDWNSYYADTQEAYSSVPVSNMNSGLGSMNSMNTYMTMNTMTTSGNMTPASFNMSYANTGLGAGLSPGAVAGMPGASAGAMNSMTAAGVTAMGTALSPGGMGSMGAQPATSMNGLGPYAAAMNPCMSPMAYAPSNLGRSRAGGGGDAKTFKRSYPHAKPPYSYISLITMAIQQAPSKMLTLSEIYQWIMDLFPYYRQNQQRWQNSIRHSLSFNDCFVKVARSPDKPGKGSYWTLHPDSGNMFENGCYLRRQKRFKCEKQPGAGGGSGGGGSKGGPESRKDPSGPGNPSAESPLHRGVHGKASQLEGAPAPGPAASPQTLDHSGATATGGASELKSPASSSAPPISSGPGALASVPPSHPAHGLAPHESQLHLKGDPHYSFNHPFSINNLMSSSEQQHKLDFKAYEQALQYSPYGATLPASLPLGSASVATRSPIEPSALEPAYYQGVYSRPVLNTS
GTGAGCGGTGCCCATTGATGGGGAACGGTGGGATGGCTGCCCGGTAGAGACCGCCACCCAGACTCCCAGTTGCAGCTTCCTGCTGGGCCACATGGATGTTGTTAGGTTAGTGTTTTAGAGTCAACAAGGCCTAAACAGATCTATCATTTCCATTTCTCTAATTAGTTCCCTAATTTTATTACTGATATCATTATACTTCCTCTTACTCTGGTTCAAAAGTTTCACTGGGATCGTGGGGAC: 0.0505 ratio
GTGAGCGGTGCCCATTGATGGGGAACTTCCTTCTGCAGCTTTCCTCCCCAAACTCCACTGGTGCTCAAGATGACTCATCTGTCATTTTCACTTCCTTTCTGGCAGAGTAGCTGAGCTGAGCAATCTACAGAGCAGGTGGACAATAGTCTGGCCTCTGCATGAAGCCACCAGTTCACAGGAAATACAGGGGGCAGAGGAACATGTTAAGTGGCACCTCAGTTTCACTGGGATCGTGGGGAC: -0.0797 ratio
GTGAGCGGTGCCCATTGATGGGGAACTGTTAATGTAAATATCATATCCATTAGCTCCTTTGTCGTGTCTTTTGTAATTCAATGGATGAAATTATATAAGGGAATTTATAATGCTCCCTAAGTAAATATGGACTTGAAGTATAATATTTCTAAAGAGTTATGTTAATTTTATTAATTCTATTTTAGTACATTTTAGGCAACCCTTCTGGTTCTGCACTATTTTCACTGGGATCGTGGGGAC: 0.485 ratio
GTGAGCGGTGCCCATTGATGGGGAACTCGGCCAGCCTGGCTTCTGCGCCCCGCCAGGAGGTCGCGGAGCGGAGCGCGGCCAGGAAGTGAGCTGAGAGTGACAGCTCCCCCCACGCTGTTAGATTATTCATGACTCATTCTCTCCACACACTGGCTCTTCTTTCTTTCGGGAGGAGGGGAGAAAGGAGCGGGAGGGCGGGCGGGCAGGGGAGAGGCAGGCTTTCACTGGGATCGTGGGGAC: 0.00269 ratio
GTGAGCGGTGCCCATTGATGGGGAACTACTTATGGGTTGATTTCTGGAATCATTGCTTTATTTGGTGGTATTCACTAAGTAGGTCACTTGCATTCATTTACATAGGAAAGCTGCTTGTGTAAATAGCAAGGTCCCTTATGAGTCAGCATTACATGTCAGCATAAAGGGAGAAAACACGAAGCATTTTACAAATAATACTCTTTAGGTGAACACATTTTGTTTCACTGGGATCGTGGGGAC: 0.429 ratio
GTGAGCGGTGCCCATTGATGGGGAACGAGCTGCTTGCAATTGAGTTGTATGTATGCTTCCACTTAATACGTCCTGCCGAGCCTGTCACTTCCGGCAAGCCAACAGGAATCTGCCCTCTGTGTTTACCTACTCTCTTTTTATGTCTTATTCCCAGAATGACTGGGGACCAAAGGAATCCTTTGCAGGAGTTTTCTCCAGACAGACAGTTCCACATGCTAGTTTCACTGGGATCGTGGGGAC: 0.25 ratio
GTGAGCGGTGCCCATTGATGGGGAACCCCTCTTCTAACTCAGAAGGGTTGAAGCAGATAATGAAACCAGATACCTATGGGAATTAGTCAGCATTTCTTTATGTGAGTAGTTGTACTTGAGTAATTTTGCAATCCTGTTTACCAATCTATTCTGTTTTACTCAGTTATTTGAACTCTTTTTTCTCTTTAAAAACAGCAAAAGGAATGAAGGAAGGAAAGCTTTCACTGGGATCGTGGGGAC: 0.00934 ratio
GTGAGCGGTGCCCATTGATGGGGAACTATTCTGCAGGATAAAATTGGAAAGAACTCAGTACATTCATTGTTCAAAGCAATTGATTCACCCTTGAGAAAGCAGGCCGGTAGTTGAAGTGTGTTTACACAGTGACTCAGCTTCTGCTCAGAATTGGGTAACAGGTCTTTATTATCTTTACTTTCTTTCTTAGAAAAAAAAATTGACTAAGTTTTTACAGTGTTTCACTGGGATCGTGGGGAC: 0.454 ratio

Some of these lines once more (sample 3):
GAAGGACC: 0.0178
ACCATGAA: -0.0168
AGGAAAAA: -0.113
